{"data": "Published values from different studies", "B1": "IgG 15884 anti-Nsp12 IgG; V domains shown; VH EVQLVESGGGLVQPGGSLRLSCAASGFNIYYYSMHWVRQAPGKGLEWVASIYSYYGYTSYADSVKGRFTISADTSKNTAYLQMNSLRAEDTAVYYCARHPAYGGMDYWGQGTLVTVSS; VL DIQMTQSPSSLSASVGDRVTITCRASQSVSSAVAWYQQKPGKAPKLLIYSASSLYSGVPSRFSGSRSGTDFTLTISSLQPEDFATYYCQQSHWHPITFGQGTKVEIK", "B2": "hisG (Mycobacterium tuberculosis, UniProt P9WMN1); chain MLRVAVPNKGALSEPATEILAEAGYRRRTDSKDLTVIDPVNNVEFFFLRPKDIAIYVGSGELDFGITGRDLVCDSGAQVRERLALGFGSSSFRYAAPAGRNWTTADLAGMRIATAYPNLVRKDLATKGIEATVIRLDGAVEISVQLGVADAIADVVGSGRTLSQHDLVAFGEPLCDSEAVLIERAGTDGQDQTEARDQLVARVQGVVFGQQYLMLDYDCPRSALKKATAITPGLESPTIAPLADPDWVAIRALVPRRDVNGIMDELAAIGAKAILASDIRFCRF", "note": "Each line is one published result; not all experiments were run side by side.", "chain of UniProt Q9HUM0 (whole entry, looked up)": "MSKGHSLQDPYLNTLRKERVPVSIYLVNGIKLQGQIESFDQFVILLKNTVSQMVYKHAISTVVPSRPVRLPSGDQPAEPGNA", "chain of UniProt Q2KS03 (whole entry, looked up)": "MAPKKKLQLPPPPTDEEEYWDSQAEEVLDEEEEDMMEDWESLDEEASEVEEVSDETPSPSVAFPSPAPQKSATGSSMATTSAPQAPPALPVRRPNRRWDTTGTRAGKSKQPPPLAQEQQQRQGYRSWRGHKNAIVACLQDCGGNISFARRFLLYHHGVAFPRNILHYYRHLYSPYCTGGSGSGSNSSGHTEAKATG", "chain of UniProt P16727 (whole entry, looked up)": "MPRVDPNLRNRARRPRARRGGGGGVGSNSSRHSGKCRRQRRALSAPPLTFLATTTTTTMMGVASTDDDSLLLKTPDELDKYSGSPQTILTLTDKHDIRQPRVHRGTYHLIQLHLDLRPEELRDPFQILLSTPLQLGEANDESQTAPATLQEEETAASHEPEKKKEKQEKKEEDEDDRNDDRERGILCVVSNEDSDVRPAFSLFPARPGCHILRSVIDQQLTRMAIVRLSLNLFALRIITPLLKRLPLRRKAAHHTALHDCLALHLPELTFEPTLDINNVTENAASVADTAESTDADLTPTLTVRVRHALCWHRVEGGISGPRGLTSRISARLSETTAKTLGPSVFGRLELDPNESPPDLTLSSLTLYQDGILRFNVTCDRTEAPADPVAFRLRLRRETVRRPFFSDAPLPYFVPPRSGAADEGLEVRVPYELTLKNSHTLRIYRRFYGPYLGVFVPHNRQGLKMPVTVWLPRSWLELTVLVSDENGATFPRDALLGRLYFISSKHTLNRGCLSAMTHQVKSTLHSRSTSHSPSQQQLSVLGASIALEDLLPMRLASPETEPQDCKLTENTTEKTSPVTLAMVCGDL"}
{"Substance": "CGGGCCCGUCCCACCGCCCUGGAGCACCAUCCGGGGCCGUGGGCCGGGCACCGGG (structured RNA)", "target or system": "UL84 1-586 (Human cytomegalovirus, UniProt P16727)", "assay": "pull-down immunoblot", "system": "folded RNA", "measurement": "binding", "value": "no binding"}
{"Substance": "B1 (IgG 15884 anti-Nsp12 IgG)", "target or system": "Nsp12 (SARS-CoV-2, UniProt P0DTD1)", "assay": "BLI", "system": "antibody", "conditions": "read off a plot", "measurement": "Kd", "value": "12 nM"}
{"Substance": "CTGTTGGGGTGAGTACTCCCTCTCAAAAGCGGGCA (dsDNA)", "target or system": "L4-22K residues 1-196 (Human adenovirus 5, UniProt Q2KS03)", "assay": "EMSA", "system": "double-stranded DNA, one strand shown", "measurement": "binding", "value": "binds"}
{"Substance": "B2 (hisG)", "target or system": "O=P(O)(O)OC[C@H]1O[C@H](OP(=O)(O)OP(=O)(O)O)[C@H](O)[C@@H]1O", "assay": "steady-state kinetics", "conditions": "pH 8.5, 25 °C, apparent, together with: ATP", "measurement": "Km", "value": "49 µM"}
{"Substance": "GCCCGGAUAGCUCAGUCGGUAGAGCAUCAGACUUUUAAUCUGAGGGUCCAGGGUUCAAGUCCCUGUUCGGGCGCCA (tRNA (Homo sapiens); unmodified)", "target or system": "gag nucleocapsid 378-432 (HIV-1, UniProt P12493)", "assay": "fluorescence anisotropy", "system": "folded RNA", "measurement": "binding", "value": "binds"}
{"Substance": "AGGGGCUUUUUCUUUGCCCAGUUCCUUGCCUGCUCCUCCUGGGCCGGGCCUUUCCUGUUGCCGGCUCGCCUUGCUGCUCCCUCCCCUACCGUGACCGGCACCCGGCGAGCUUGGCGGGCCCGCCCUUUUGGCUCCGGACGCGUGGAAUCAUAUUUCCCGAAUCUGUUAAUGAGACCGUUCGAUUCCGCCCCCAACAAGGUUCUGGAACGCUGGCAGGAAAACAUUCAUGGAUUCAGGUU (structured RNA)", "target or system": "hfq full length assumed (Pseudomonas aeruginosa, UniProt Q9HUM0)", "assay": "EMSA", "system": "folded RNA", "measurement": "binding", "value": "no binding"}
{"note": "For quick reference, copied from above:"}
{"Substance": "CGGGCCCGUCCCACCGCCCUGGAGCACCAUCCGGGGCCGUGGGCCGGGCACCGGG (structured RNA)", "target or system": "UL84 1-586 (Human cytomegalovirus, UniProt P16727)", "assay": "pull-down immunoblot", "system": "folded RNA", "measurement": "binding", "value": "no binding"}
